Measured values of several laboratories.
Protocols differ between the studies behind these lines. Numbers after ± are the reported error.

Molecule | tested on | test | test system | conditions | scale | endpoint | value
hexaarginine | PorA peptide pore | peptide binding, planar bilayer single-channel recording |  | 0.5 µM, pH 7.4, -25 mV, cis side, 150 mM KCl |  | koff | 4550 ± 450 s⁻¹
Polymyxin B | Klebsiella pneumoniae | broth microdilution | meropenem-selected KPC-2 strain |  |  | MIC | 32 µg/mL
nonaarginine | PorA peptide pore | peptide binding, planar bilayer single-channel recording |  | 0.5 µM, pH 7.4, +20 mV, trans side, 150 mM KCl |  | koff | 256 ± 25 s⁻¹
aspterric acid |  | root length | Arabidopsis thaliana Col-0 seeds | 100 µg/mL, 7 days, dark |  | inhibition | 99.2%
thiostrepton | Streptococcus pyogenes |  |  |  |  | MIC | 0.002 µg/mL
DAPT | Streptococcus pneumoniae |  | ATCC 700677, multidrug-resistant, CAMHB, lysed horse blood |  |  | MIC | 12.5 µg/mL
Polymyxin B | Acinetobacter baumannii | broth microdilution, MH medium | carbapenem-resistant CCARM 12005 | 16 h, 37 °C |  | MIC | 2 µM
insulin human |  | refers to: TGM5 mRNA | EcoHIV-infected mouse, brain | i.p., dose not given | relative to: PBS | fold change | 1.41
tunicamycin | Enterobacter cloacae | broth microdilution, EUCAST | DSM 30054 | 18 to 24 h, 37 °C |  | MIC | > 64 µg/mL
Polymyxin B | Pseudomonas aeruginosa | broth microdilution | ATCC 27853 | 20 h |  | MIC | 2 µg/mL
colistin | Klebsiella pneumoniae |  | 1188718 multidrug-resistant |  |  | MIC | ≤ 0.12 µg/mL
colistin | Klebsiella pneumoniae | broth microdilution | KPC-127 producing |  |  | MIC | 64 µg/mL
Teicoplanin A2-2 | Enterococcus faecium |  | VanB vancomycin-resistant |  |  | MIC | 0.5 µg/mL
